# Published values pooled from the literature.
# Several values in a cell are separate wells, animals, samples, runs or records. ± marks the error that the study gave.
# Tumor necrosis factor receptor superfamily member 9/Nectin-4: Tumor necrosis factor receptor superfamily member 9/Nectin-4 (Homo sapiens, UniProt Q07011+Q96NY8)
# Sequence of UniProt Q96NY8 (whole entry, looked up): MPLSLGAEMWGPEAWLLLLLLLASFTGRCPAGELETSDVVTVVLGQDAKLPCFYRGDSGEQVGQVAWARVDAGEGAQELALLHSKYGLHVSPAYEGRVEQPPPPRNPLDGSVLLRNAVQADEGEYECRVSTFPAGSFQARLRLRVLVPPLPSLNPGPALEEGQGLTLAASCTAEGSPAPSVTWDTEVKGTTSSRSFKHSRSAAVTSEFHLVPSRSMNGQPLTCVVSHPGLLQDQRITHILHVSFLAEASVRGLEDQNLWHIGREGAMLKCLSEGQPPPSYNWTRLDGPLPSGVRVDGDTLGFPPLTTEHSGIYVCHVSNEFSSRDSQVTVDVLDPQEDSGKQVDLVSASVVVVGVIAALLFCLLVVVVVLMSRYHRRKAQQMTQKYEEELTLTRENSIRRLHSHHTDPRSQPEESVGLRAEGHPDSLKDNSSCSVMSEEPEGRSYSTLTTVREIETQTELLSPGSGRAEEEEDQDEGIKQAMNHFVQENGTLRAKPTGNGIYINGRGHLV
# Sequence of UniProt Q07011 (whole entry, looked up): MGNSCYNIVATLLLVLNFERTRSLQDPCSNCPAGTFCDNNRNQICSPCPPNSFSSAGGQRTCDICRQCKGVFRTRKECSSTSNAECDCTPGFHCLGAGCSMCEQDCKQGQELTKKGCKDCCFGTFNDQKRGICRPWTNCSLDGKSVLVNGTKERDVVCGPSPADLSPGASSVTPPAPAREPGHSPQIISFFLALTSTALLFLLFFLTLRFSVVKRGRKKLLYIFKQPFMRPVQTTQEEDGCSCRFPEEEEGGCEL
# CYP3A4: Cytochrome P450 3A4 (CYP3A4, Homo sapiens, UniProt P08684)
# Sequence of UniProt P08684 (whole entry, looked up): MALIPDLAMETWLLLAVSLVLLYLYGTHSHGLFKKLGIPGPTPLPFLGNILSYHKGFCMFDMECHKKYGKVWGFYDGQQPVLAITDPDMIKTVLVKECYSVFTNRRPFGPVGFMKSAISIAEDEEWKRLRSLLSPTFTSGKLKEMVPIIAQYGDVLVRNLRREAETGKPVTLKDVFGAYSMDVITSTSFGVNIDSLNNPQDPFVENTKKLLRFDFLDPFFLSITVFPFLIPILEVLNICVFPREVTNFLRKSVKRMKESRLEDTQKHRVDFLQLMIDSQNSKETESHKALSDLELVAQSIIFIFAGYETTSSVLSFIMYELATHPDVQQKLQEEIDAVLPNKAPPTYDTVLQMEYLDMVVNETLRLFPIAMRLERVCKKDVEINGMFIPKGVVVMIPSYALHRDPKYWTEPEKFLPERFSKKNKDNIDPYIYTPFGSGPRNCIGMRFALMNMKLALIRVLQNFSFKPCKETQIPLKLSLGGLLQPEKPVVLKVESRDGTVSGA
# ABCC2: ATP-binding cassette sub-family C member 2 (ABCC2, Homo sapiens, UniProt Q92887)
# Sequence of UniProt Q92887 (whole entry, looked up): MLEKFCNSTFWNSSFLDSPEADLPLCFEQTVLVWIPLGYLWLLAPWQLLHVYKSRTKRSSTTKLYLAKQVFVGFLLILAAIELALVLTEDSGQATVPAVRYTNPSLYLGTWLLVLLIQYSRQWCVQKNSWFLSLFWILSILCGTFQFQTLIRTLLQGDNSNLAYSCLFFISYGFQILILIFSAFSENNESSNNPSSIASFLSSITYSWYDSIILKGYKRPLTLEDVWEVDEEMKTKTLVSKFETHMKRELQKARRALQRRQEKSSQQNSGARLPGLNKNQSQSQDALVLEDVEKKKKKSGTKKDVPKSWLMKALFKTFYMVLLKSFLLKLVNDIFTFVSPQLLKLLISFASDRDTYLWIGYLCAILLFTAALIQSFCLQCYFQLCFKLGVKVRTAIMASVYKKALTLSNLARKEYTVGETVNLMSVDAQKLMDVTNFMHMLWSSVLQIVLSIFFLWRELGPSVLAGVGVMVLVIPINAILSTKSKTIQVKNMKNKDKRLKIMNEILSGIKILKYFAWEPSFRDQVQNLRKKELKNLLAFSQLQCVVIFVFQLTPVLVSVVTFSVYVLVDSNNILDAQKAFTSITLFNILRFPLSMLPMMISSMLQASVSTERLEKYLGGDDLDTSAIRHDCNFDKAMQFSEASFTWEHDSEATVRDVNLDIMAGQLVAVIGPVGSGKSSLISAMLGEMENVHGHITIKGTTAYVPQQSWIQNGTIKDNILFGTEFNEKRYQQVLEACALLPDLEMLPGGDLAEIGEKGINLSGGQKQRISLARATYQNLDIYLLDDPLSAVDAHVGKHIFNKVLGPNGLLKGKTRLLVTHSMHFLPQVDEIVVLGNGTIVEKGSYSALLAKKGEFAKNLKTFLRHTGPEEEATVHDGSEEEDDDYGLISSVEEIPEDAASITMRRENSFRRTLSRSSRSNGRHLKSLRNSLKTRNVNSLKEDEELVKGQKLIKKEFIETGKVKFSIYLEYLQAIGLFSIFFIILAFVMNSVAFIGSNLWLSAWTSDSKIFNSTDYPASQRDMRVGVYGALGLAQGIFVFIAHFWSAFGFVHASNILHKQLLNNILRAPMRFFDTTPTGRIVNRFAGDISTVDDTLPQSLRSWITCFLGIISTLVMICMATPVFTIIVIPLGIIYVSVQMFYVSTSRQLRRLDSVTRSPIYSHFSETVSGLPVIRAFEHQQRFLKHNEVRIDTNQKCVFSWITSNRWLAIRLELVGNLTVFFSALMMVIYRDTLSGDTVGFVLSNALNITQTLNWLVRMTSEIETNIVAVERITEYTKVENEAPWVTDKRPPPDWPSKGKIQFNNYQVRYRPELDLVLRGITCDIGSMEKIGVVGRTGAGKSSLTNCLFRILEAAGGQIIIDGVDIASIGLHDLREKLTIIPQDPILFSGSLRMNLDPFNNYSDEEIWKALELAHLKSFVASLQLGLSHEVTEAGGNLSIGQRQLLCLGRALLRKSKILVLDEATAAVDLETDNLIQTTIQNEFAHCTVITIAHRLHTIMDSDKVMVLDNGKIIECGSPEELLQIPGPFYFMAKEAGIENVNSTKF
# CYP1A2: Cytochrome P450 1A2 (CYP1A2, Homo sapiens, UniProt P05177)
# Sequence of UniProt P05177 (whole entry, looked up): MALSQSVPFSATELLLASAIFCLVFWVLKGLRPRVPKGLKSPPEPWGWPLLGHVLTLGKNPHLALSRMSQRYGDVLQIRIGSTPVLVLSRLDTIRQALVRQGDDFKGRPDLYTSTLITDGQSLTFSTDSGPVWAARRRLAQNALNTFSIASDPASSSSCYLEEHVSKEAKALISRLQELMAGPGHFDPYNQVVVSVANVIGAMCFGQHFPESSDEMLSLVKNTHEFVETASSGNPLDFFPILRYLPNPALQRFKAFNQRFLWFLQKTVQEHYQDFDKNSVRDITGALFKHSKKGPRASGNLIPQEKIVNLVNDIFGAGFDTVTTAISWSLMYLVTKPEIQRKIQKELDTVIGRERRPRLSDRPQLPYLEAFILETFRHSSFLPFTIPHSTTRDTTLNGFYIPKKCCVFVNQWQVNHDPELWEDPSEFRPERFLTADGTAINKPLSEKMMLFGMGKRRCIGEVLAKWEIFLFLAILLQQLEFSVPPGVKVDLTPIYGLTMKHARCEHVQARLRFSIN
# Sequence of UniProt Q16853 (whole entry, looked up): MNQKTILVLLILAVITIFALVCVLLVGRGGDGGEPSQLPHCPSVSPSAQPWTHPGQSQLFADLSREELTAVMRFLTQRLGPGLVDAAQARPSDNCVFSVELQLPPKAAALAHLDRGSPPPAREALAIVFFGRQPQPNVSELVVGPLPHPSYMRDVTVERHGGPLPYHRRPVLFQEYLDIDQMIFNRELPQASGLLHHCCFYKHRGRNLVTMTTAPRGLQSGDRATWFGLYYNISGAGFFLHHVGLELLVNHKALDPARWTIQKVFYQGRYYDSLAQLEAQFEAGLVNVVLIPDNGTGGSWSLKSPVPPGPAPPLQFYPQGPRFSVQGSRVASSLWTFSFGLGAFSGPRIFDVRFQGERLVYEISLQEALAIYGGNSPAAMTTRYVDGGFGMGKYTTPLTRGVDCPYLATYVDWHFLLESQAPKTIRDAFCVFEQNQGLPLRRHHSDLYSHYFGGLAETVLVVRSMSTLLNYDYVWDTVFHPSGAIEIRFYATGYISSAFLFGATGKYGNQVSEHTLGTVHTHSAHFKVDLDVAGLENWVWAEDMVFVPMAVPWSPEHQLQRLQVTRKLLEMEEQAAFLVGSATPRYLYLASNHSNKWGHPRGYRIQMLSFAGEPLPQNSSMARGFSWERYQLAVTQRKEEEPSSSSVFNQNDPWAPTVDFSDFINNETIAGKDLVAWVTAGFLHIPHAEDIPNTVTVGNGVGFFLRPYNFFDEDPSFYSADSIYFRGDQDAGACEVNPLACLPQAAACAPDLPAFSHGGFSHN
SMILES,target or system,test,test system,setting,how to read,quantity,result
CC[C@H](CO)N(CCN(N=O)[C@H](CC)CO)N=O,Escherichia coli,"mutagenicity, Ames plate incorporation",WP2 uvrA pKM101,"1500 µg/plate, without S9, methanol",,revertant colonies per plate,147 ± 30
CCCC[C@@H]1NC(=O)[C@H](Cc2ccc(O)cc2)NC(=O)[C@@H]2CCCN2C(=O)[C@H](CC(=O)O)NC(=O)[C@H](C)NC(=O)[C@H](Cc2ccccc2)NC(=O)[C@@H]2CSCCC(=O)N3CN(CN(C3)C(=O)CCSC[C@@H](C(=O)N[C@@H](CNC(=O)CCOCCOCCOCCOCCOCCOCCOCCOCCOCCOCCOCCOCCn3cc(CCC(=O)NCCC(=O)N(C)CC(=O)N(C)CC(=O)N(C)CC(=O)N(C)CC(=O)N(C)CC(=O)N(C)CC(=O)N(C)CC(=O)N(C)CC(=O)N(C)CC(=O)N(C)CC(=O)N[C@H]4CSCCC(=O)N5CN6CN(C5)C(=O)CCSC[C@H](NC(=O)[C@@H](CC(=O)O)NC(=O)[C@H](Cc5cccc7ccccc57)NC(=O)[C@@H]5CCCN5C4=O)C(=O)N[C@@H](CCSC)C(=O)N[C@@H](CCCCNC(=N)N)C(=O)N[C@@H](CC(=O)O)C(=O)N[C@@H](Cc4c[nH]c5ccccc45)C(=O)N[C@@H](CO)C(=O)N[C@@H]([C@@H](C)O)C(=O)N4CCC[C@H]4C(=O)N4C[C@H](O)C[C@H]4C(=O)N[C@@H](Cc4c[nH]c5ccccc45)C(=O)N[C@H](C(N)=O)CSCCC6=O)nn3)C(N)=O)NC1=O)C(=O)CCSC[C@H](NC(C)=O)C(=O)N[C@@H](CC(C)(C)C)C(=O)N1CCC[C@H]1C(=O)N[C@@H](CCC(=O)O)C(=O)N[C@H](C)C(=O)N1CCC[C@H]1C(=O)N[C@@H](Cc1ccc(O)cc1)C(=O)N2,Tumor necrosis factor receptor superfamily member 9/Nectin-4,"reporter gene, agonist, luciferase reporter",CD137 Jurkat reporter with HT-1376,"6 h, geometric mean",relative to: wells without compound,Emax,36 fold
Cc1cc(Nc2ncnc3ccc(NC4=NC(C)(CO)CO4)cc23)ccc1Oc1ccn2ncnc2c1 (stereo not drawn),CYP3A4,,"human, plasma","oral, 300 mg tucatinib single dose, day 1, tucatinib alone",,AUC(0-t) (arithmetic mean),506 ng·h/mL
CCCC[C@@H]1NC(=O)[C@H](Cc2ccc(O)cc2)NC(=O)[C@@H]2CCCN2C(=O)[C@H](CC(=O)O)NC(=O)[C@H](C)NC(=O)[C@H](Cc2ccccc2)NC(=O)[C@@H]2CSCCC(=O)N3CN(CN(C3)C(=O)CCSC[C@@H](C(=O)N[C@@H](C)C(N)=O)NC1=O)C(=O)CCSC[C@H](NC(C)=O)C(=O)N[C@@H](CC(C)(C)C)C(=O)N1CCC[C@H]1C(=O)N[C@@H](CCC(=O)O)C(=O)N[C@H](CCCCNC(=O)CCc1cn(CCOCCOCCOCCOCCOCCC(=O)N[C@H]3CSCCC(=O)N4CN5CN(C4)C(=O)CCSC[C@H](NC(=O)[C@@H](CC(=O)O)NC(=O)[C@H](Cc4cccc6ccccc46)NC(=O)[C@@H]4CCCN4C3=O)C(=O)N[C@@H](CCSC)C(=O)N[C@@H](CCCCNC(=N)N)C(=O)N[C@@H](CC(=O)O)C(=O)N[C@@H](Cc3c[nH]c4ccccc34)C(=O)N[C@@H](CO)C(=O)N[C@@H]([C@@H](C)O)C(=O)N3CCC[C@H]3C(=O)N3C[C@H](O)C[C@H]3C(=O)N[C@@H](Cc3c[nH]c4ccccc34)C(=O)N[C@H](C(N)=O)CSCCC5=O)nn1)C(=O)N1CCC[C@H]1C(=O)N[C@@H](Cc1ccc(O)cc1)C(=O)N2,Tumor necrosis factor receptor superfamily member 9/Nectin-4,"reporter gene, agonist, luciferase reporter",CD137 Jurkat reporter with HT-1376,"6 h, geometric mean",relative to: wells without compound,Emax,31 fold
O=C(O)CN1Cc2cccc(n2)CN(CC(=O)O)Cc2cccc(n2)C1,Mn2+,potentiometric titration,,"pH 7.4, ligand and Mn2+ 10 µM",,pMn,9.98
CC[C@H]1[C@@H](O)[C@@H]2[C@H](CC[C@]3(C)[C@@H]([C@H](C)CCNC(=O)NS(=O)(=O)c4ccc(C(C)(C)C)cc4)CC[C@@H]23)[C@@]2(C)CC[C@@H](O)C[C@@H]12,CYP3A4,,"human, plasma","dose not given, added: fluconazole",,half-life mean,22.7 h
CCCN(CCC)S(=O)(=O)c1ccc(C(=O)O)cc1,ABCC2,ceftiofur transport,Caco-2,"100 µM, added: ceftiofur 200 µg/mL",relative to: control,Papp,increased
CCCC[C@@H]1NC(=O)[C@H](Cc2ccc(O)cc2)NC(=O)[C@H](C)N(C)C(=O)[C@H](CC(=O)O)NC(=O)[C@H](C)NC(=O)[C@H](Cc2ccccc2)NC(=O)[C@@H]2CSCCC(=O)N3CN(CN(C3)C(=O)CCSC[C@H](NC(C)=O)C(=O)N[C@@H](CC(C)(C)C)C(=O)N3CCC[C@H]3C(=O)N[C@@H](CCC(=O)O)C(=O)N[C@H](CCCCNC(=O)CCc3cn(CCOCCOCCOCCN(CCOCCOCCOCCC(=O)N[C@H]4CSCCC(=O)N5CN6CN(C5)C(=O)CCSC[C@H](NC(=O)[C@@H](CC(=O)O)NC(=O)[C@H](Cc5cccc7ccccc57)NC(=O)[C@@H]5CCCN5C4=O)C(=O)N[C@@H](CCSC)C(=O)N[C@@H](CCCCNC(=N)N)C(=O)N[C@@H](CC(=O)O)C(=O)N[C@@H](Cc4c[nH]c5ccccc45)C(=O)N[C@@H](CO)C(=O)N[C@@H]([C@@H](C)O)C(=O)N4CCC[C@H]4C(=O)N4C[C@H](O)C[C@H]4C(=O)N[C@@H](Cc4c[nH]c5ccccc45)C(=O)N[C@H](C(N)=O)CSCCC6=O)CCOCCOCCOCCn4cc(CCC(=O)NCCCC[C@H]5NC(=O)[C@H](CCC(=O)O)NC(=O)[C@@H]6CCCN6C(=O)[C@H](CC(C)(C)C)NC(=O)[C@@H](NC(C)=O)CSCCC(=O)N6CN7CN(C6)C(=O)CCSC[C@H](NC(=O)[C@H](Cc6ccc(O)cc6)NC(=O)[C@@H]6CCCN6C5=O)C(=O)N[C@@H](Cc5ccccc5)C(=O)N[C@@H](C)C(=O)N[C@@H](CC(=O)O)C(=O)N(C)[C@@H](C)C(=O)N[C@@H](Cc5ccc(O)cc5)C(=O)N[C@@H](CCCC)C(=O)N[C@H](C(N)=O)CSCCC7=O)nn4)nn3)C(=O)N3CCC[C@H]3C(=O)N[C@@H](Cc3ccc(O)cc3)C(=O)N2)C(=O)CCSC[C@@H](C(N)=O)NC1=O,Tumor necrosis factor receptor superfamily member 9/Nectin-4,"reporter gene, agonist, luciferase reporter",CD137 Jurkat reporter with HT-1376,"6 h, geometric mean",relative to: wells without compound,Emax,76 fold
CCN1/C(=C/C(C)=O)Sc2ccc(F)cc21,,,cynomolgus monkey,"oral, 10 mg/kg, 1 h post-dose",,QRS duration,35 ± 2 ms
N#C[C@H](C[C@@H]1CCCNC1=O)NC(=O)[C@H](CC1CC1)NC(=O)c1cc2cccc(Cl)c2[nH]1,CYP1A2,NADPH metabolic stability,,"2 µM, pH 7.4, 37 °C, 100 pmol/mL enzyme",,half-life,> 2.13 h
NCc1cc2c(cc1F)C(=O)N(C1CCC(=O)NC1=O)C2 (stereo not drawn),"Amine oxidase [copper-containing] 3 (AOC3, Homo sapiens, UniProt Q16853)","substrate, LC-MS/MS",cirrhotic human liver lysate,"125.00 µM, 60 min, pH 7.4",,concentration,12500 ng/mL and 14700 ng/mL
NC/C(=C\F)COc1cccc(Cn2c(=S)[nH]c(=O)c3[nH]cnc32)c1,ABCC2,"transport, inhibitor",HEK cells expressing ABCC2,"30 µM, added: CDCF substrate",,inhibition,< 50%
COc1cc(O)c(CC=C(C)C)c2c1C(=O)CC(c1ccc(O)cc1)O2 (stereo not drawn),CYP2B6 (human),"enzyme activity, inhibitor",human liver microsomes,"1 µM, pH 7.4, added: bupropion",,inhibition,< 10%
Cn1cc(-c2ccc(-c3cncc(Cl)c3N3CCC4(CCNC4=O)CC3)cc2)cn1,COLO 205,"gene expression, microarray, refers to: POU2AF1 (BOB1) mRNA",,"concentration not given, 2 h",relative to: untreated cells,log2 fold change,-2.86
Cc1oc2ccccc2c1Cc1cc(I)c(OCC(=O)O)c(I)c1,"Voltage-gated inwardly rectifying potassium channel KCNH2 (KCNH2, Homo sapiens, UniProt Q12809)","ion current, whole-cell patch clamp",HEK293 expressing hERG1,"10 µM, external K+ 10 mM",,activation slope factor,9.2 ± 0.4 mV
CC(C)C[C@H](NC(=O)C[C@H](O)[C@H](CC(C)C)NC(=O)[C@H](Cc1c[nH]cn1)NC(=O)CNC(=O)[C@@H](NC(=O)[C@H](C)NC(=O)[C@H](Cc1c[nH]c2ccccc12)NC(=O)[C@H](CCC(N)=O)NC(=O)[C@@H](Cc1ccccc1)NC(=O)COCCOCCNC(=O)CCC(C(=O)O)N1CCN(CC(=O)O)CCN(CC(=O)O)CCN(CC(=O)O)CC1)C(C)C)C(N)=O (stereo partly drawn) [lutetium-177 labelled],,,"BALB/c nu/nu mice, salivary glands","50 pmol, 1 h, added: PA 300 µg",,tissue uptake,0.3 ± 0.1 %ID/g
CCOc1c([C@H](C)n2nc(C)c3c(N)ncnc32)cc(Cl)c(F)c1[C@@H]1CNC(=O)C1,,,human Hodgkin lymphoma patients,"oral, 30 mg, day 15, geometric mean",,AUC(0-tau),19.2 µM·h
CCCC[C@@H]1NC(=O)[C@H](Cc2ccc(O)cc2)NC(=O)[C@@H]2CCCN2C(=O)[C@H](CC(=O)O)NC(=O)[C@H](C)NC(=O)[C@H](Cc2ccccc2)NC(=O)[C@@H]2CSCCC(=O)N3CN(CN(C3)C(=O)CCSC[C@@H](C(=O)N[C@@H](CNC(=O)Cn3cc(CCC(=O)NCCC(=O)N(C)CC(=O)N(C)CC(=O)N(C)CC(=O)N(C)CC(=O)N(C)CC(=O)N(C)CC(=O)N(C)CC(=O)N(C)CC(=O)N(C)CC(=O)N(C)CC(=O)N[C@H]4CSCCC(=O)N5CN6CN(C5)C(=O)CCSC[C@H](NC(=O)[C@@H](CC(=O)O)NC(=O)[C@H](Cc5cccc7ccccc57)NC(=O)[C@@H]5CCCN5C4=O)C(=O)N[C@@H](CCSC)C(=O)N[C@@H](CCCCNC(=N)N)C(=O)N[C@@H](CC(=O)O)C(=O)N[C@@H](Cc4c[nH]c5ccccc45)C(=O)N[C@@H](CO)C(=O)N[C@@H]([C@@H](C)O)C(=O)N4CCC[C@H]4C(=O)N4C[C@H](O)C[C@H]4C(=O)N[C@@H](Cc4c[nH]c5ccccc45)C(=O)N[C@H](C(N)=O)CSCCC6=O)nn3)C(N)=O)NC1=O)C(=O)CCSC[C@H](NC(C)=O)C(=O)N[C@@H](CC(C)(C)C)C(=O)N1CCC[C@H]1C(=O)N[C@@H](CCC(=O)O)C(=O)N[C@H](C)C(=O)N1CCC[C@H]1C(=O)N[C@@H](Cc1ccc(O)cc1)C(=O)N2,Tumor necrosis factor receptor superfamily member 9/Nectin-4,"reporter gene, agonist, luciferase reporter",CD137 Jurkat reporter with HT-1376,"6 h, geometric mean",relative to: wells without compound,Emax,42 fold
Cn1c(=O)c2c(ncn2C)n(C)c1=O,CYP1A2,,"human, plasma","oral, 200 mg, day 1, alone, geometric mean",,AUC(0-inf),31700 ng·h/mL
COc1ccc(Cl)cc1C(=O)NCCc1ccc(S(=O)(=O)NC(=O)NC2CCCCC2)cc1,human serum albumin,binding,,,,log K,1.69
N#Cc1ccc([C@H]2CCc3cncn32)c(F)c1,CYP2B6 (human),inducer,,48 h,,EC50,136 ± 12 µM

# Repeated from above:
SMILES,target or system,test,test system,setting,how to read,quantity,result
COc1ccc(Cl)cc1C(=O)NCCc1ccc(S(=O)(=O)NC(=O)NC2CCCCC2)cc1,human serum albumin,binding,,,,log K,1.69
